Assay results pooled from the literature.
Each line is one published result; not all experiments were run side by side. Numbers after ± are the reported error. In brackets after ≈: the same amount, converted by molar mass.
Slc6a4: Sodium-dependent serotonin transporter (Slc6a4, Rattus norvegicus, UniProt P31652)
Slc6a3: Sodium-dependent dopamine transporter (Slc6a3, Rattus norvegicus, UniProt P23977)
OPRD1: Delta-type opioid receptor (OPRD1, Homo sapiens, UniProt P41143)
NOX4: NADPH oxidase 4 (NOX4, Homo sapiens, UniProt Q9NPH5)

Protein sequences, listed by entry. Tags and fused reporters are not part of them.
UniProt P31652, whole entry: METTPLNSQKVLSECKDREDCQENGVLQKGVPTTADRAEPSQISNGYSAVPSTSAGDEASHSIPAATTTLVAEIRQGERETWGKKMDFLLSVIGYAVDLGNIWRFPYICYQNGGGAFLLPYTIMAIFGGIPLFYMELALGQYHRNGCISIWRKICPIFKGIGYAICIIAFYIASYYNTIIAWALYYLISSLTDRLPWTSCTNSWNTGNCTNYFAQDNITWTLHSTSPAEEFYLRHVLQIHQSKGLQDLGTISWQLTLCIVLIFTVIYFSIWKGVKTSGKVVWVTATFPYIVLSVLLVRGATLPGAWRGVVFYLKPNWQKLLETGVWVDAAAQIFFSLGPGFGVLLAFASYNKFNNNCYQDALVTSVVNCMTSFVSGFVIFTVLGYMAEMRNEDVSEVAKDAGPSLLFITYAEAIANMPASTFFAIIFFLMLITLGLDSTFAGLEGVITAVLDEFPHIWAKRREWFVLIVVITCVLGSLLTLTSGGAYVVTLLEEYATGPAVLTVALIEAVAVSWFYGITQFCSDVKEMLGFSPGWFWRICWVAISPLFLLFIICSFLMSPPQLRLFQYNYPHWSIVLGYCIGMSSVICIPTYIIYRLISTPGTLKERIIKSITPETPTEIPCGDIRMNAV
UniProt P23977, whole entry: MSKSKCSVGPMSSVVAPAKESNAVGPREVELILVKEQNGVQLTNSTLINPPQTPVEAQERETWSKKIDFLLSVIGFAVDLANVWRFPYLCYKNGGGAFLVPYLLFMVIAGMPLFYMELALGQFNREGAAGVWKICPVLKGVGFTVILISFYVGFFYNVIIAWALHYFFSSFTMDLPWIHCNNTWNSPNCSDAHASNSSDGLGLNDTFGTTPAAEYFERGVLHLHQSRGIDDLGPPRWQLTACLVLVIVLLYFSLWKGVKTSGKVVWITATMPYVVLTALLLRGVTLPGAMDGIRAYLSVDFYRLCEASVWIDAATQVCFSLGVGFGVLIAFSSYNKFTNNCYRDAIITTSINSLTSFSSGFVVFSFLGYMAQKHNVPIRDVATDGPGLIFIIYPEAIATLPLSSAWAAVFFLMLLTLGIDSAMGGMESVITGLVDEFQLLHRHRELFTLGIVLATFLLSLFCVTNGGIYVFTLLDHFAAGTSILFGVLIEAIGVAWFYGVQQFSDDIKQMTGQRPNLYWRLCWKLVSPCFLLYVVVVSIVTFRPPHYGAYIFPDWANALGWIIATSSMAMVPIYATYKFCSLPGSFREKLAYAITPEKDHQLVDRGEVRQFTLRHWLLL
UniProt P41143, whole entry: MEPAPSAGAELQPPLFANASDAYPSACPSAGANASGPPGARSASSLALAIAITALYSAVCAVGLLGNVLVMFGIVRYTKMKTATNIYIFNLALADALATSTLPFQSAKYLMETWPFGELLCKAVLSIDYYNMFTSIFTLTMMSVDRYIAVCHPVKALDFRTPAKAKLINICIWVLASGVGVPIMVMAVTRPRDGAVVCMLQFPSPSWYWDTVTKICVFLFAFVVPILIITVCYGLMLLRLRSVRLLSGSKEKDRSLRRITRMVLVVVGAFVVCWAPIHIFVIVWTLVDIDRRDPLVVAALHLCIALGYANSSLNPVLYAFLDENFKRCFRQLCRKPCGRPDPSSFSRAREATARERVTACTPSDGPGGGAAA
UniProt Q9NPH5, whole entry: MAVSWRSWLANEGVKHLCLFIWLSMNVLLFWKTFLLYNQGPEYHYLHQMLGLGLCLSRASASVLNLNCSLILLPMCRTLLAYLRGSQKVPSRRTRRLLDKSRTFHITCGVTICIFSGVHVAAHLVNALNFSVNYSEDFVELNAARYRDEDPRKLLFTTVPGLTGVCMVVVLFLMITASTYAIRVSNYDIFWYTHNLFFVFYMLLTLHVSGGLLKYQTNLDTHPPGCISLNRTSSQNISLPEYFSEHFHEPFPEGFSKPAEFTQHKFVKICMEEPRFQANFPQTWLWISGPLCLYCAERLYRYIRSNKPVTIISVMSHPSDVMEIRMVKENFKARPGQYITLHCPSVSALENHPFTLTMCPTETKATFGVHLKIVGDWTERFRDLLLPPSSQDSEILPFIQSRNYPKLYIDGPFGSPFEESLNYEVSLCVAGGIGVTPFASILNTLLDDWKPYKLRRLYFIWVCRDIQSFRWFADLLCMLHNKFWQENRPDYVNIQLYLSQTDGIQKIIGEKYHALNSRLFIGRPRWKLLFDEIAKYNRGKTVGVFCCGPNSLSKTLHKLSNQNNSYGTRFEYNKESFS
UniProt P28472, whole entry, looked up: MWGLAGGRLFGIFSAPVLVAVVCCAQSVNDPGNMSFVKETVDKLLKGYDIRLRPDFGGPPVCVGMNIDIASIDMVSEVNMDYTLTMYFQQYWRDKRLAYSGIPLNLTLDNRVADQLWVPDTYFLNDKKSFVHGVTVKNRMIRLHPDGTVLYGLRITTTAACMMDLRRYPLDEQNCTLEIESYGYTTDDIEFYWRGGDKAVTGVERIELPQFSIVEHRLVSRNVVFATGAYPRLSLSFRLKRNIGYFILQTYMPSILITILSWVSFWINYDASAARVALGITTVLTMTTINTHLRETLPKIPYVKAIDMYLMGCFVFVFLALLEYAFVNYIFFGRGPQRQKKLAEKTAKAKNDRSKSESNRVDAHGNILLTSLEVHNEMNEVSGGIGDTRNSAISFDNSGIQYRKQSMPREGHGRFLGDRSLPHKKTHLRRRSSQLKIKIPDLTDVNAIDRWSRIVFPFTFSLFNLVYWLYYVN
UniProt P47869, whole entry, looked up: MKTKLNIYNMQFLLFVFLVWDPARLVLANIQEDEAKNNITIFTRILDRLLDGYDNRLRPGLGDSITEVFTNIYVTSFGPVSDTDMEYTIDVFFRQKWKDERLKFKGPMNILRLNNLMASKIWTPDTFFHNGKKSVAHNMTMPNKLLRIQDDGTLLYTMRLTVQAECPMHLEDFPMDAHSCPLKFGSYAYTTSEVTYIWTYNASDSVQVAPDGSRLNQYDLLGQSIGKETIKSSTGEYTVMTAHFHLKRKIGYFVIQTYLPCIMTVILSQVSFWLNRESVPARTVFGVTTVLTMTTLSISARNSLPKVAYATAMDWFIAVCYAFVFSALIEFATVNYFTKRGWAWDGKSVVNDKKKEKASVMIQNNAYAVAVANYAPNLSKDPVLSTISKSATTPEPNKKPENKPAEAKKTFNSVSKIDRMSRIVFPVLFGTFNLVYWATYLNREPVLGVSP
UniProt Q9NRD9, whole entry, looked up: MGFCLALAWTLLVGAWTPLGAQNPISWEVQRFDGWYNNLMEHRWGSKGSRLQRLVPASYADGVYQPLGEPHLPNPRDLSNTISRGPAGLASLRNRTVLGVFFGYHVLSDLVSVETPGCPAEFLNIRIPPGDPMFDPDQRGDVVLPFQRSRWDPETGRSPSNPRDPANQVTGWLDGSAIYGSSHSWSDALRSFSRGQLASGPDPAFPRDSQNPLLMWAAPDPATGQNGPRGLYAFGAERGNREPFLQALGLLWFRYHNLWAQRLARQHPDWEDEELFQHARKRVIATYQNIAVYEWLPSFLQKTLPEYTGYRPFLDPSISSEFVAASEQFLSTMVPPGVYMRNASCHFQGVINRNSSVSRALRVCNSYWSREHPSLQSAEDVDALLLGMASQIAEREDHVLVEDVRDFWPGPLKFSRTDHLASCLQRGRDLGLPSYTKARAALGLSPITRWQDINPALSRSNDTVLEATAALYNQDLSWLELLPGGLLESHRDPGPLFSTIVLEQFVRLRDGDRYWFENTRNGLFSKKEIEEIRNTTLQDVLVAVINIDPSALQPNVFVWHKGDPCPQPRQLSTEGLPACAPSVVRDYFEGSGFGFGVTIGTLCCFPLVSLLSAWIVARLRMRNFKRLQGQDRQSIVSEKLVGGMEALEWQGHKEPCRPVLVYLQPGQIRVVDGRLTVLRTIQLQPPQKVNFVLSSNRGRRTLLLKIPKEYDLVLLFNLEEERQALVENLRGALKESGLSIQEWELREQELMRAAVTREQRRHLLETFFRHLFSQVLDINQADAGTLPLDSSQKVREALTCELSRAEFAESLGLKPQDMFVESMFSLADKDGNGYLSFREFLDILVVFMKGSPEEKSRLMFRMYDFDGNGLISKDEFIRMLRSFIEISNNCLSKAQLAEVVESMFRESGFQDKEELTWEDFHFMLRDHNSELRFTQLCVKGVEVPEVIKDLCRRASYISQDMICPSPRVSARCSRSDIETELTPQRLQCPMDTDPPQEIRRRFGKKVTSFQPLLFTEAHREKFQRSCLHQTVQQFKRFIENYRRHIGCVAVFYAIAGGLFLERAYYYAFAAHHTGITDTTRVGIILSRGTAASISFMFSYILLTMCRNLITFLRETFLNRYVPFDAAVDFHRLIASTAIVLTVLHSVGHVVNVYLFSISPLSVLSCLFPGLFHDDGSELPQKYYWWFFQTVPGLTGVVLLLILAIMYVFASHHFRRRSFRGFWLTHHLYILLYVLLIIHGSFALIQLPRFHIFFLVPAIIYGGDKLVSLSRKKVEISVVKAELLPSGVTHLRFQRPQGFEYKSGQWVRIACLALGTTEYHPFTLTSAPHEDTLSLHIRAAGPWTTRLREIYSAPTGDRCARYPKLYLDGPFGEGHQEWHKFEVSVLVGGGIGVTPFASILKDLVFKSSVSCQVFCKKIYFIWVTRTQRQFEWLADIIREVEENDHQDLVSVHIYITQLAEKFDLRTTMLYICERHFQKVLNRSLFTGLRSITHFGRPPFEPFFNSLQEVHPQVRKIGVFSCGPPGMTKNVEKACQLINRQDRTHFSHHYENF
UniProt P41145, whole entry: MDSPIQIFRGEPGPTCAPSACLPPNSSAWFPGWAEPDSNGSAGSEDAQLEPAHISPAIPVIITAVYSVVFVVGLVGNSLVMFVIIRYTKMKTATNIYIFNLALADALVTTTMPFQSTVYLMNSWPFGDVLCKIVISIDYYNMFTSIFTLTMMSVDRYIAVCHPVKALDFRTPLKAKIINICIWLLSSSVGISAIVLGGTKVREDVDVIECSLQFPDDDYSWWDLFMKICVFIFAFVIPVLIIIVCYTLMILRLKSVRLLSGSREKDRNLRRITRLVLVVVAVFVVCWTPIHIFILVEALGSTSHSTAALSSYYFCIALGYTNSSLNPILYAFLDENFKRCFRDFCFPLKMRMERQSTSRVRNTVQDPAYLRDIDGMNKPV
UniProt Q06418, whole entry, looked up: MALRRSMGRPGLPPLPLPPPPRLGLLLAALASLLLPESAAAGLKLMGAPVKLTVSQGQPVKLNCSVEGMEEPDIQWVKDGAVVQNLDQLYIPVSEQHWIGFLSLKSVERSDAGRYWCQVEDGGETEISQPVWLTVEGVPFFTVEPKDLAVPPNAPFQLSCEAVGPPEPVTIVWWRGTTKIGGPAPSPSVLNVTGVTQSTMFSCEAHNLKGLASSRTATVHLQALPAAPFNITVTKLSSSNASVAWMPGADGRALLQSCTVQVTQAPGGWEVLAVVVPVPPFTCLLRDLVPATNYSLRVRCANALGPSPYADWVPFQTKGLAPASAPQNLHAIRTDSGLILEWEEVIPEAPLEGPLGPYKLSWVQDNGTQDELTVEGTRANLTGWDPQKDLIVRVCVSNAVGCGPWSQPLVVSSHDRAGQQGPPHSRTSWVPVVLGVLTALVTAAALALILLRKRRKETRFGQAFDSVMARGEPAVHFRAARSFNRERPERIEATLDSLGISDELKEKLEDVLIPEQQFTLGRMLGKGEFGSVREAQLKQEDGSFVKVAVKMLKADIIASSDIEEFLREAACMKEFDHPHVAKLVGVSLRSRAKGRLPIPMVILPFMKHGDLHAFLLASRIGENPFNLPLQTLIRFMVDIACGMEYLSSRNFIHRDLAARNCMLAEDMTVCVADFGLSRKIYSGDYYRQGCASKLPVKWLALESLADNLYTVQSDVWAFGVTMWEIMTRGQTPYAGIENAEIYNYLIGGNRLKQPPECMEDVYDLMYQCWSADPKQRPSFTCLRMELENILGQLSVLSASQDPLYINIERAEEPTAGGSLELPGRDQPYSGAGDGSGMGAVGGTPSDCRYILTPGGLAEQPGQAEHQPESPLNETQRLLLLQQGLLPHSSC
UniProt P67660, whole entry S267Q, looked up: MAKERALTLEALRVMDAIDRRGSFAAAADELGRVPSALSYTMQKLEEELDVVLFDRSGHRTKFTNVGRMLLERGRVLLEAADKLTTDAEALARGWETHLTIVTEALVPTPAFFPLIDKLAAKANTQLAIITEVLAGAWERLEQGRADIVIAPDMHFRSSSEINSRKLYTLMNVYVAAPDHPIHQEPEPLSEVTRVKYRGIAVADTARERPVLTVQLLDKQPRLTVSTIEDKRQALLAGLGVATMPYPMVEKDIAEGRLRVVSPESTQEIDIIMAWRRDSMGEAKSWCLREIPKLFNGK
UniProt P21462, whole entry R190W: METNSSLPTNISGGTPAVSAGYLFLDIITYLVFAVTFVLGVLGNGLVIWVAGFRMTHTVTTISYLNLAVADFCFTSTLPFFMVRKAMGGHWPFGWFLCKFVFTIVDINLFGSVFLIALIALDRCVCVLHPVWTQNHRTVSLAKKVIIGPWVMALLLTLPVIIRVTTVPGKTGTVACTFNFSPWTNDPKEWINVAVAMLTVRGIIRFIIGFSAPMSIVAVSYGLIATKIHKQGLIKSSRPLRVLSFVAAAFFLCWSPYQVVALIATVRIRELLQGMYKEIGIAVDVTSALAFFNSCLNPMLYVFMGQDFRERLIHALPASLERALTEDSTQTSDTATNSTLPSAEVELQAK

SMILES | tested on | test | test system | conditions | scale | endpoint | result
C[C@@H](Oc1cc[n+]([O-])c2ccccc12)c1cn(-c2ccc(Cl)cc2)nn1 | guaB (Vibrio cholerae, UniProt Q9KTW3) | binding, biolayer interferometry |  | 25 °C, added: IMP 1 mM, NAD+ |  | Kd | > 5 µM
C=C(C)[C@@H]1[C@H]2OC(=O)[C@@H]1[C@]1(O)C[C@H]3O[C@]34C(=O)O[C@H]2[C@]14C | GABRB3/Gamma-aminobutyric acid receptor subunit alpha-2 (Homo sapiens, UniProt P28472+P47869) | chloride current, inhibitor, whole-cell voltage clamp | L929 | 3 min preincubation, added: GABA at EC90 |  | IC50 | 1.98 µM
Cc1ccc2[nH]cc(CCN)c2c1 | Slc6a4 | serotonin release, releaser | rat brain synaptosomes |  |  | EC50 | 0.139 ± 0.019 µM
CC(C)c1ccc2nc(Sc3ncnc4c3nnn4Cc3ccccc3)oc2c1 | DUOX1 (Homo sapiens, UniProt Q9NRD9) | enzyme activity, inhibitor, Amplex Red | cell-free membranes |  |  | IC50 | > 15 µM
COc1cccc2c(CCN)c[nH]c12 | Slc6a3 | dopamine release, releaser | rat brain synaptosomes |  |  | EC50 | 2.12 ± 0.088 µM
CO[C@]12CC[C@@]3(C[C@@H]1[C@@H](O)c1ccccc1)[C@H]1Cc4ccc(O)c5c4[C@@]3(CCN1CC1CC1)[C@H]2O5 | OPRD1 | binding, radioligand displacement | CHO | added: [3H]DPDPE |  | Ki | 0.0013 ± 0.00036 µM
CO[C@]12CC[C@@]3(C[C@@H]1[C@@](C)(O)c1ccc(C(C)(C)C)cc1)[C@H]1Cc4ccc(O)c5c4[C@@]3(CCN1CC1CC1)[C@H]2O5 | OPRK1 (Homo sapiens, UniProt P41145) | radioligand binding | CHO | added: [3H]U69593 |  | Ki | 0.00892 ± 0.00034 µM
NCCc1c[nH]c2cc(F)ccc12 | Slc6a3 | dopamine release, releaser | rat brain synaptosomes |  |  | EC50 | 0.106 ± 0.004 µM
CN(C(=O)Cc1cccc2occc12)[C@H]1CC[C@@]2(CCCO2)C[C@@H]1N1CCCC1 | Oprk1 (Mus musculus, UniProt P33534) | agonist |  | mouse receptor |  | EC50 | 0.00048 µM
CCN(CC)C(=O)Oc1ccc(C(=O)Nc2cccc3cc[nH]c23)cc1 |  | NMDA receptor EPSC, inhibitor, whole-cell patch clamp | CA1 pyramidal neurons, mouse, hippocampal slices | 10 µM |  | weighted decay time constant | 118 ± 9.8 ms
NCCc1c[nH]c2ccc(F)cc12 | Slc6a3 | dopamine release, releaser | rat brain synaptosomes |  |  | EC50 | 0.0823 ± 0.0068 µM
CC[C@](O)([C@H]1C[C@@]23C=C[C@]1(OC)[C@@H]1Oc4c(O)ccc5c4[C@@]12CCN(CC1CC1)[C@@H]3C5)C(C)(C)C | OPRD1 | G-protein activation, agonist |  |  |  | EC50 | 0.314 ± 0.011 µM
Cc1cccc2oc(Sc3ncnc4c3nnn4Cc3ccccc3)nc12 | NADPH oxidase 2 (CYBB, Homo sapiens, UniProt P04839) | enzyme activity, inhibitor, MCLA chemiluminescence | cell-free membranes |  |  | IC50 | > 100 µM
CC#C/C(=N\OC[C@H]1COCCN1)c1ccc2ncnc(Nc3ccc(OCc4cccc(F)c4)c(Cl)c3)c2c1 | TYRO3 (Homo sapiens, UniProt Q06418) | kinase activity |  | 10 µM |  | inhibition | 42.8%
CC[C@@](O)(c1ccccc1)[C@H]1C[C@@]23CC[C@]1(OC)[C@@H]1Oc4c(O)ccc5c4[C@@]12CCN(CC1CC1)[C@@H]3C5 | OPRM1 (Homo sapiens, UniProt P35372) | binding, radioligand displacement | CHO | added: [3H]DAMGO |  | Ki | 0.001 ± 0.00015 µM
CCCN1CCN(c2ccc3c(c2)C2CC3CCN2C(=O)OCc2ccccc2)CC1 (centres unmarked) | CHRM5 (Homo sapiens, UniProt P08912) | binding, radioligand binding |  |  |  | Ki | 1.4 µM
Fc1ccc2nc(Sc3ncnc4c3nnn4Cc3ccccc3)oc2c1 | NOX4 | enzyme activity, inhibitor, Amplex Red | cell-free membranes |  |  | IC50 | > 100 µM
O=c1ccc2nc3ccc(OCC4CCCCC4)cc3oc-2c1 | Mycobacterium tuberculosis |  | mc2 6206 PA-824-resistant ddn mutant | 7 days |  | MIC90 | 138 µM (≈ 42.7 µg/mL)
Cc1cc(O)ccc1O | Probable HTH-type transcriptional regulator YhaJ, effector-binding domain (yhaJ, Escherichia coli, UniProt P67660, S267Q) | microscale thermophoresis |  | pH 7.5 |  | Kd | 8400 ± 2200 µM
CCN1CCN(Cc2ccc(NC(=O)c3ccc(C)c(/C=C/c4cnc5[nH]ccc5c4OC)c3)cc2C(F)(F)F)CC1 | ETV6-PDGFRA fusion | kinase-CDC37 interaction, inhibitor | human cells | 5 µM | baseline: vehicle | log2 fold change | -0.904
CC[C@H](C)[C@H](NC(=O)[C@H](Cc1c[nH]c2ccccc12)NC(=O)[C@H](CCC(N)=O)NC(=O)[C@H](CCCNC(=N)N)NC(=O)[C@H](Cc1c[nH]c2ccccc12)NC(=O)CNC(=O)[C@@H](NC(=O)[C@H](Cc1c[nH]c2ccccc12)NC(=O)[C@H](Cc1c[nH]c2ccccc12)NC(=O)[C@H](CC(N)=O)NC(=O)[C@H](CC(=O)O)NC(=O)[C@@H](N)CC(N)=O)[C@@H](C)O)C(=O)O | FPR1 (Homo sapiens, UniProt P21462, R190W) | binding, competition binding |  | 4 °C, added: formyl-Nle-Leu-Phe-Nle-Tyr-Lys-FITC 0.3 nM |  | Ki | 1.2 ± 0.15 µM
c1ccc(Cn2nnc3c(Sc4nc5ncccc5o4)ncnc32)cc1 | NOX4 | enzyme activity, inhibitor, Amplex Red | cell-free membranes |  |  | IC50 | 41 ± 4 µM
COc1ccc2c(CCN)c[nH]c2c1 | Slc6a4 | serotonin release, releaser | rat brain synaptosomes |  |  | EC50 | 0.0538 ± 0.0054 µM
CO[C@]12CC[C@@]3(C[C@@H]1[C@](C)(O)c1ccccc1)[C@H]1Cc4ccc(O)c5c4[C@@]3(CCN1CC1CC1)[C@H]2O5 | OPRK1 (Homo sapiens, UniProt P41145) | G-protein activation, antagonist |  | added: U-69593 |  | Kb | 0.00027 µM
NCCc1c[nH]c2c(Cl)cccc12 | Slc6a3 | dopamine release, releaser | rat brain synaptosomes |  |  | EC50 | 1.33 ± 0.061 µM
CO[C@]12C=C[C@@]3(C[C@@H]1[C@@H](O)c1ccccc1)[C@H]1Cc4ccc(O)c5c4[C@@]3(CCN1CC1CC1)[C@H]2O5 | OPRK1 (Cavia porcellus, UniProt P41144) | binding, radioligand displacement | guinea pig brain membranes | added: [3H]U-69593 |  | Ki | 0.0015 ± 0.00095 µM
O=c1ccc2nc3ccc(OC4CCCC4)cc3oc-2c1 | Mycobacterium tuberculosis |  | mc2 6206 PA-824-resistant ddn mutant | 7 days |  | MIC90 | 18 µM (≈ 5.06 µg/mL)
CO[C@]12CC[C@@]3(C[C@@H]1[C@](C)(O)c1ccccc1C)[C@H]1Cc4ccc(O)c5c4[C@@]3(CCN1CC1CC1)[C@H]2O5 | OPRK1 (Homo sapiens, UniProt P41145) | binding, radioligand displacement | CHO | added: [3H]diprenorphine |  | Ki | 0.00016 ± 9e-05 µM
CC[C@H](N)Cc1c[nH]c2ccccc12 | Slc6a3 | dopamine release, releaser | rat brain synaptosomes |  |  | EC50 | 0.654 ± 0.05 µM
